Measured values of several laboratories.
Numbered parts are unrelated; each lists some results of a single study.

Block 1 — method: RNA Bind-n-Seq; form: RNA; medium: in vitro; tested at: 15 pmol; notes: 4-mer, random 30-nt RNA, single round; added: 3 µM RocA, 2 mM AMP-PNP; reference: mean of 4-mers; direction: higher = stronger binding; measurement: 4-mer enrichment Z-score
Target: Eukaryotic initiation factor 4A-I (EIF4A1, Homo sapiens, UniProt P60842, residues 1-406, full length assumed)
UniProt P60842, sequence (whole entry, looked up): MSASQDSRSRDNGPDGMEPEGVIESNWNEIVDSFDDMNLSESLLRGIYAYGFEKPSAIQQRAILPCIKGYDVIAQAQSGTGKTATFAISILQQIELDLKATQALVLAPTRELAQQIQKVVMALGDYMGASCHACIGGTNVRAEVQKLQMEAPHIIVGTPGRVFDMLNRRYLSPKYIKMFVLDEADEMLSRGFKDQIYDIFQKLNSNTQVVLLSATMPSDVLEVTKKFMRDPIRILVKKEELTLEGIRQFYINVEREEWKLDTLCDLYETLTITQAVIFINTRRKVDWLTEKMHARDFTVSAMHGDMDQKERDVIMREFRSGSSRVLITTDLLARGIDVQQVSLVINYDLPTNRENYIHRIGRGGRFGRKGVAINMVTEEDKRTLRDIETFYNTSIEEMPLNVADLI
GCUU: -0.465
UUCG: -0.517
CAUG: -0.595
AGGC: 0.205
UGCA: -0.471
CGUC: -1.06
ACAA: -0.411
UGUG: 1.83

Block 2 — target: UBE2A UBC core domain (UniProt P49459); method: yeast two-hybrid; medium: yeast; notes: mostly zero background; reference: not given; direction: higher = stronger interaction; measurement: lacZ reporter activity
UniProt P49459, sequence (whole entry, looked up): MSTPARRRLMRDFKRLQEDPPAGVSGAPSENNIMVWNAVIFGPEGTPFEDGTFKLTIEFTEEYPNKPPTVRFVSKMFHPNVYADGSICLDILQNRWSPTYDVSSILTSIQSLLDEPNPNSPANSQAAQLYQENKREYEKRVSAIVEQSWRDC
B1: TRIM5 RING domain (UniProt Q9C035); chain LREVKLSPEGQKVDHCARHGEKLLLFCQEDGKVICWLCERSQEHRGHHTFLTEEVAREYQVKL
B2: TRIM24 RING domain (UniProt O15164); chain EAARLNLLDTCAVCHQNIQSRAPKLLPCLHSFCQRCLPAPQRYLMLPAPMLGSAETPPPVPAPGSPVSGSSPFATQVGVIRCPVCSQECAERHII
B3: DTX4 RING domain (UniProt Q9Y2E6); chain QKVRHPPDEDCTICMERLTAPSGYKGPQPTVKPDLVGKLSRCGHVYHIYCLVAMYNNGNKDGSLQCPTCKTIYGVKTGTQ
B4: NEURL1 RING domain (UniProt O76050); chain VTPGLGQWSDECTICYEHAVDTVIYTCGHMCLCYACGLRLKKALHACCPICRRPIKDIIKT
B5: TRIM13 RING domain (UniProt O60858); chain MELLEEDLTCPICCSLFDDPRVLPCSHNFCKKCLEGILEGSVRNSLWRPAPFKCPTCRKETSATGINS
B6: TRIM43 RING domain (UniProt Q96BQ3); chain FSHAFQKELTCVICLNYLVDPVTICCGHSFCRPCLCLSWEEAQSPANCPACREPSPKMDFKT
B7: RNF208 RING domain (UniProt Q9H0X6); chain SSAAAGEPLECPTCGHSYNVTQRRPRVLSCLHSVCEQCLQILYESCPKYKFISCPTCRRETVLFTDYG
B8: RNF111 RING domain (UniProt Q6ZNA4); chain EGTEEDTEEKCTICLSILEEGEDVRRLPCMHLFHQVCVDQWLITNKKCPICRVDIEAQLPSE
B9: RC3H1 RING domain (UniProt Q5TC82); chain QAPQWTDFLSCPICTQTFDETIRKPISLGCGHTVCKMCLNKLHRKACPFDQTTINTDIELL
B10: TRIML1 RING domain (UniProt Q8N9V2); chain LMENLREELTCFICLDYFSSPVTTECGHSFCLVCLLRSWEEHNTPLSCPECWRTLEGPHFQS
B11: TRIM5 RING domain (UniProt Q9C035); chain ILVNVKEEVTCPICLELLTQPLSLDCGHSFCQACLTANHKKSMLDKGESSCPVCRISYQPENIRP
B1 (TRIM5 RING domain): 0
B2 (TRIM24 RING domain): 0
QVDKAVFHMQSVKCLKCQEQKRAVLPCQHAALCELCAEGSECPICQPGRAHTLQS (UNK RING domain (UniProt Q9C0B0)): 0
B3 (DTX4 RING domain): 0
ASLPTSEEDLCPICYAHPISAVFQPCGHKSCKACINQHLMNNKDCFFCKTTIVSVEDWE (RNF123 RING domain (UniProt Q5XPI4)): 0
B4 (NEURL1 RING domain): 0
MPIRALCTICSDFFDHSRDVAAIHCGHTFHLQCLIQWFETAPSRTCPQCRIQVGKRTIIN (TRAIP RING domain (UniProt Q9BWF2)): 0
B5 (TRIM13 RING domain): 0
B6 (TRIM43 RING domain): 0
B7 (RNF208 RING domain): 0
B8 (RNF111 RING domain): 0
B9 (RC3H1 RING domain): 0
B10 (TRIML1 RING domain): 0
B11 (TRIM5 RING domain): 0
DHGAVGQEMCCPICCSEYVKGEVATELPCHHYFHKPCVSIWLQKSGTCPVCRCMFPPPL (PJA1 RING domain (UniProt Q8NG27)): 0

Block 3 — read-out: peptide-MHC binding; form: peptide; tested at: concentration not given; measurement: binding
Target: HLA class I histocompatibility antigen, A alpha chain, allele A*80:01 (Homo sapiens, UniProt P04439)
QTEPKTSVV: inactive
QHAWPLPPL: inactive
SQAFNTPAL: inactive
QLEVRSTEV: inactive

Block 4 — method: universal PBM; form: double-stranded DNA, one strand shown; medium: in vitro; tested at: not given; direction: higher = stronger binding; measurement: E-score
Target: Sal-like protein 4, full length isoform B (SALL4, Homo sapiens, UniProt Q9UJQ4-2, residues 1-616)
Notes: 8-mer, flanks averaged, mean of replicates
Target sequence (chain): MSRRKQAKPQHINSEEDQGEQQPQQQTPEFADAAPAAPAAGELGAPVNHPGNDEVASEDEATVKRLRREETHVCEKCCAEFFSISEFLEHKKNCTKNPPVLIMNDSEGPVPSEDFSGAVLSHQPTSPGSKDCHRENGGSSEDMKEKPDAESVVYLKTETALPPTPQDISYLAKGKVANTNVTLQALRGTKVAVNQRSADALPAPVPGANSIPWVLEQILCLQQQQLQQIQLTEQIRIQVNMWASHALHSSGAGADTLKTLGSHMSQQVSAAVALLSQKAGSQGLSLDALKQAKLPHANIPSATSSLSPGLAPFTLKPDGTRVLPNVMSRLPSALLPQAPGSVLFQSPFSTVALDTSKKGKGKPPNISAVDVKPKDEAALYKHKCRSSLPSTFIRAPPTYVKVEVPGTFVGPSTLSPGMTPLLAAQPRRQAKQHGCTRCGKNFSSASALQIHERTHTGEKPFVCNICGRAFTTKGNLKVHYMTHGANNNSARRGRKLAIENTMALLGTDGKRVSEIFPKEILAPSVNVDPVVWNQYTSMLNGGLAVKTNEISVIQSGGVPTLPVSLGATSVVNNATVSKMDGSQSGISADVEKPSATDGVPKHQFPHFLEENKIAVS
GGGCTGGA: -0.223
CAGCACCG: -0.335
ACAGTAAT: 0.215
AGAAATGC: 0.071
CTAGGCTA: -0.101
CAGTAGCC: -0.18
AACCCAGC: -0.185
ACCTGCCT: -0.0787
